# Results collected from several papers.
# Protocols differ between the studies behind these lines. Several values in a cell are separate wells, animals, samples, runs or records.
# PRMT5: Protein arginine N-methyltransferase 5 (PRMT5, Homo sapiens, UniProt O14744)
# Sequence of UniProt P30771 (whole entry, looked up): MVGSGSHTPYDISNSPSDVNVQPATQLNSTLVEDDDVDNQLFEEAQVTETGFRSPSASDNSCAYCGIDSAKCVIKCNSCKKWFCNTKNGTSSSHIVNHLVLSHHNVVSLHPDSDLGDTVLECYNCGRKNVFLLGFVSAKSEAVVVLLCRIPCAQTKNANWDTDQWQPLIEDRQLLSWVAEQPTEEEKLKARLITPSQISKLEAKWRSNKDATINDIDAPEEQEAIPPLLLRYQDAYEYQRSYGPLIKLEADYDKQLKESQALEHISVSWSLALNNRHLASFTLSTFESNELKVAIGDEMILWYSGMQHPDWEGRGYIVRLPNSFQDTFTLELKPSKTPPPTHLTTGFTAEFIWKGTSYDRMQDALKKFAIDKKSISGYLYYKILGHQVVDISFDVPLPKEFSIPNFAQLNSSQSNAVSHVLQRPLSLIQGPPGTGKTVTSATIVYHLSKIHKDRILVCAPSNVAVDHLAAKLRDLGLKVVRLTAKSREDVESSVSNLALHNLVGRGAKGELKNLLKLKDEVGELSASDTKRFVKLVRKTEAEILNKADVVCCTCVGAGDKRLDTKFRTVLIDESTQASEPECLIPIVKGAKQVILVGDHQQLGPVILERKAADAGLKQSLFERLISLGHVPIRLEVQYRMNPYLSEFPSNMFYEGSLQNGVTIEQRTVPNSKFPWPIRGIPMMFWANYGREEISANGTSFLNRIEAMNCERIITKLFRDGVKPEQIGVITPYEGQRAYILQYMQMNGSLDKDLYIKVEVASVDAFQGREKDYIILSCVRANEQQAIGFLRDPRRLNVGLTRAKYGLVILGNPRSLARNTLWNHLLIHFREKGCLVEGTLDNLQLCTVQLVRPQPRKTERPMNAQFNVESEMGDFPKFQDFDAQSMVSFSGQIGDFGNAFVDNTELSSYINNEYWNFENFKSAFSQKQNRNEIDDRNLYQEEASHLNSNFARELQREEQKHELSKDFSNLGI
# Sequence of UniProt O14744 (whole entry, looked up): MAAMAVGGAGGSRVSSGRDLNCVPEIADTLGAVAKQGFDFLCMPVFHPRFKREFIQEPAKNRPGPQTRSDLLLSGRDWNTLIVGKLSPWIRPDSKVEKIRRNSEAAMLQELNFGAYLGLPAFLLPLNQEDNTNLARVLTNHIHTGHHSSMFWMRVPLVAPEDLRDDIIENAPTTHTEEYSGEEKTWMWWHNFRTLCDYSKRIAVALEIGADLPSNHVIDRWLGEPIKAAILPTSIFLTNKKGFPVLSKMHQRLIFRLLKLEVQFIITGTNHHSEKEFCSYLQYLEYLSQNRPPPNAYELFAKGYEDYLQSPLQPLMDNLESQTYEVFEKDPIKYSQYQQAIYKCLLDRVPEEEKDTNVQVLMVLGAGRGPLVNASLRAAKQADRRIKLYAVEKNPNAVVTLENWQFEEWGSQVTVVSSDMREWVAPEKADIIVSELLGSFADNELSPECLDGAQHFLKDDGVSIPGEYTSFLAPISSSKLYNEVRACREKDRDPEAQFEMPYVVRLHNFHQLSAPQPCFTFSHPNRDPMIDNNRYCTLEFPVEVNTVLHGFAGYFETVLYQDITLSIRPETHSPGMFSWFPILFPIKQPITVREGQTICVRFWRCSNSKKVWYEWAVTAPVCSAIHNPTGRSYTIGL
# Sequence of UniProt Q8TBX8 (whole entry, unmodified, looked up): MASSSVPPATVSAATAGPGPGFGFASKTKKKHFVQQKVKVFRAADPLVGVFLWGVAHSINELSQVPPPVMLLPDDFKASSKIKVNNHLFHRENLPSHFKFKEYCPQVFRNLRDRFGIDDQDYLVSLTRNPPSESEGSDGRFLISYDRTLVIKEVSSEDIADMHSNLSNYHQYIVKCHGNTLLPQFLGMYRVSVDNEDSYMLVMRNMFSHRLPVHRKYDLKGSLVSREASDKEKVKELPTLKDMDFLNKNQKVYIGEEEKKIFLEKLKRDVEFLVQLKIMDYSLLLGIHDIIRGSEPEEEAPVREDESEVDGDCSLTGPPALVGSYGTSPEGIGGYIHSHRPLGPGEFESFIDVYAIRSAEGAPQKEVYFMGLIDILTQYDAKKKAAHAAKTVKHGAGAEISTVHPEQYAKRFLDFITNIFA
# Sequence of UniProt P14778 (whole entry, looked up): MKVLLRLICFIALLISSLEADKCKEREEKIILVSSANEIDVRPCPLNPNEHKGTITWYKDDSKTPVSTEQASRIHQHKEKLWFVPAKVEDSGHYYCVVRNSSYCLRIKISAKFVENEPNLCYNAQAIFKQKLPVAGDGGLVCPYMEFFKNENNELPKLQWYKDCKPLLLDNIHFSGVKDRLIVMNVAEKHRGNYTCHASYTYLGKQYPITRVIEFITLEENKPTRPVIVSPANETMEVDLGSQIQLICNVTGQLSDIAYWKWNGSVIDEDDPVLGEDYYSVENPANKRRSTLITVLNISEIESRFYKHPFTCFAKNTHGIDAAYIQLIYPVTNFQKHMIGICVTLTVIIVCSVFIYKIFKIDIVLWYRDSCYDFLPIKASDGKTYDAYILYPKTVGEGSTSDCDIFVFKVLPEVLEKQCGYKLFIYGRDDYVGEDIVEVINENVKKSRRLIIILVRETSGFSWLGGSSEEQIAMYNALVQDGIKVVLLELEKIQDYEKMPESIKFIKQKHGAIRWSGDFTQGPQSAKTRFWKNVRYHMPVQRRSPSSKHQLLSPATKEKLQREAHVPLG
# Sequence of UniProt Q9HB29 (whole entry, looked up): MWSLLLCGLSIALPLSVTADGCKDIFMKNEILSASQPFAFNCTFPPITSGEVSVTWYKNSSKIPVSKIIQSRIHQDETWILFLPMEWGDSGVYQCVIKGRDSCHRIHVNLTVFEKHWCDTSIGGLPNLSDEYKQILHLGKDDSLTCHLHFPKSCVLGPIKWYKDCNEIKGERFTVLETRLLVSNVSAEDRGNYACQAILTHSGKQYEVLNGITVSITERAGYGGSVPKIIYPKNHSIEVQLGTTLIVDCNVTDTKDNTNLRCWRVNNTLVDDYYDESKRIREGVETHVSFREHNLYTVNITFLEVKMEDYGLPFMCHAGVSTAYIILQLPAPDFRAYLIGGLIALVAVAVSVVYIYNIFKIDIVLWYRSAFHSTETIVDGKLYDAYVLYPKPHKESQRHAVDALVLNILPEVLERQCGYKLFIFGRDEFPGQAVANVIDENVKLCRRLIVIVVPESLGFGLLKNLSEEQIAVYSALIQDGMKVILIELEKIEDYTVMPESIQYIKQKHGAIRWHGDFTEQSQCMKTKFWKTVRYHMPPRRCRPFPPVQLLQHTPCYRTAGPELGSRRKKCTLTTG
# Sequence of UniProt Q9BXA6 (whole entry, looked up): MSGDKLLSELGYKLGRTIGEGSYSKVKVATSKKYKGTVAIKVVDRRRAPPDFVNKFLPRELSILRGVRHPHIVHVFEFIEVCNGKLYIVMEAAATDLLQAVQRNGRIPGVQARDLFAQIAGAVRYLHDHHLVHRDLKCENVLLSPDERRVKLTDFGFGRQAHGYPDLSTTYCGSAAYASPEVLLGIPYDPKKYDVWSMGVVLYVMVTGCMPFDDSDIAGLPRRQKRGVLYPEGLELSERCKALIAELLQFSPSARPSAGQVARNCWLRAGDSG
# Sequence of UniProt Q63531 (whole entry, looked up): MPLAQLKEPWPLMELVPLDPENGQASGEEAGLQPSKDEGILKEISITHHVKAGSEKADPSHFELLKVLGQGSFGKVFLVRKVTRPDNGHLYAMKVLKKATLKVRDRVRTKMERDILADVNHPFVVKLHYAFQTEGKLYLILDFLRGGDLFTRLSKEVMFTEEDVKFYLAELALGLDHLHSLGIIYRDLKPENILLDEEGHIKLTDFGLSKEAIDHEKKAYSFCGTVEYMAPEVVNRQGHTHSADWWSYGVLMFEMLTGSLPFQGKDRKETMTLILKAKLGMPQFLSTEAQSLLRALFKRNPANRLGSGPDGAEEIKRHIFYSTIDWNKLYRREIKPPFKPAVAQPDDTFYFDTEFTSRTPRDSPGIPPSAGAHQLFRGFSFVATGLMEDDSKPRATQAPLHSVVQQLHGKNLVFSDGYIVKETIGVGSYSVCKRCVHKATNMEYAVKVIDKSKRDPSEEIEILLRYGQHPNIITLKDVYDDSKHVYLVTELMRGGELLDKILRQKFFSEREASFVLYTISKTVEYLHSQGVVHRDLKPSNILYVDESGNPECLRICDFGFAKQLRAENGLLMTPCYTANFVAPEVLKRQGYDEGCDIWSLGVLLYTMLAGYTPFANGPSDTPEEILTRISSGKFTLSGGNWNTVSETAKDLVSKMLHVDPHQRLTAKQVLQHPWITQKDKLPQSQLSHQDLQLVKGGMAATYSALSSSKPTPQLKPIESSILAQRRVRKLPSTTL
# Sequence of UniProt P45983 (whole entry, looked up): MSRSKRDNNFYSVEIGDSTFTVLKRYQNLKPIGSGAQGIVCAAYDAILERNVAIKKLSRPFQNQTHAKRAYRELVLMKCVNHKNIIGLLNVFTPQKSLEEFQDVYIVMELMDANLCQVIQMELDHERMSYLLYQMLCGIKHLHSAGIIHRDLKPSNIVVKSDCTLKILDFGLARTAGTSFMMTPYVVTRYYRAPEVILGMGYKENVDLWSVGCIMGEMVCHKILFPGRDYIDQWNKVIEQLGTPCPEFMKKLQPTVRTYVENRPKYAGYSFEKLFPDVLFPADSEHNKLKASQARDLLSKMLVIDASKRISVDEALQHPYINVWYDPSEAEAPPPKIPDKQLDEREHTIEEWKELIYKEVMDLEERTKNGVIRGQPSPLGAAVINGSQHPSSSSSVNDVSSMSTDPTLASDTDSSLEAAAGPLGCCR
Structure (SMILES),target,assay,system,conditions,scale,remaining activity
N=C(N)c1ccc(-c2ccc(-c3ccc(C(N)=O)cc3)o2)cc1,PRMT5,"enzyme activity, inhibitor, radiometric",,20 µM,,81.6%
O=C=[N][Ru-4]123([n]4c5ccc(O)cc5c5c6c(c7cc(F)c[n+]1c7c54)C(=O)NC6=O)[S+]1CC[S+]2CC[S+]3CC1 (stereo not shown),"Ribosomal protein S6 kinase alpha-1 (Rps6ka1, Rattus norvegicus, UniProt Q63531)",enzyme activity,,"100 nM, rat enzyme, together with: 10 µM ATP",relative to: untreated,25%
CC(C)[C@@H]1NC(=O)[C@H](Cc2ccccc2)NC(=O)CSC[C@@H](C(N)=O)NC(=O)[C@H](CCC(=O)O)NC(=O)[C@H](CO)NC(=O)[C@H](Cc2c[nH]c3cccc(Cl)c23)NC(=O)[C@H](C2CCCCC2)NC(=O)[C@H](C(C)C)NC(=O)[C@H](Cc2ccc(O)cc2)NC(=O)[C@H](CC(=O)O)NC(=O)[C@H](Cc2c[nH]c3ccccc23)NC(=O)[C@H](Cc2ccc(N)nc2)NC(=O)[C@H](Cc2c[nH]c3ccc(Cl)cc23)NC(=O)[C@H](CCC(=O)O)NC1=O,"Interleukin-1 receptor-like 2 (IL1RL2, Homo sapiens, UniProt Q9HB29)","reporter gene (SEAP), inhibitor, HEK-Blue IL-36R reporter",HEK-Blue IL-36R cells,"0.0017 µM, 6 h, together with: IL-36γ 0.01 ng/mL",,108%
CN(C)S(=O)(=O)c1ccc(S(=O)(=O)N2CCC(n3c(=O)[nH]c4ccccc43)CC2)cc1,"ATP-dependent helicase NAM7, helicase domain (NAM7, Saccharomyces cerevisiae, UniProt P30771)","ATPase activity, BIOMOL Green",,concentration not given,,89% and 95% and 100% and 99% and 98% and 90%
N=C(N)c1ccc(-c2coc(-c3ccc(C(=N)N)cc3)c2)cc1,PRMT5,"enzyme activity, inhibitor, radiometric",,20 µM,,70.3%
COC(=O)c1cc2cc3c(cc2oc1=O)N(CC(=O)NC(Cc1ccc(C)cc1)C(=O)NCC=CS(=O)(=O)c1ccccc1)CCC3 (stereo not shown),"Cathepsin B (CTSB, Homo sapiens, UniProt P07858)",inhibitor,,"5 µM, 60 min, together with: Z-Arg-Arg-pNA",relative to: uninhibited control,22%
COc1ccccc1-c1ccncc1C(=O)Nc1nnc(OCc2ccc(Cl)cc2)s1,"DNA polymerase theta, helicase domain (POLQ, Homo sapiens, UniProt O75417)","ATPase activity, ADP-Glo",,"0.06 µM, together with: ATP 400 µM",,46%
Nc1ncc(-c2cc(-c3cnn(CC(F)(F)F)c3)ncc2F)nc1C(=O)NC1CNCC(F)C1 (stereo not shown),"Testis-specific serine/threonine-protein kinase 6 (TSSK6, Homo sapiens, UniProt Q9BXA6)",enzyme activity,,1 µM,relative to: DMSO control,112%
N#Cc1cnc2sc(C(=O)O)cc2c1N1CCc2[nH]nc(C(=O)N[C@@H](CC(=O)NCCOCCN3CCOCC3)c3cccc(Br)c3)c2C1,"Interleukin-1 receptor type 1 (IL1R1, Homo sapiens, UniProt P14778)","SEAP reporter gene, antagonist",HEK-Blue IL-36R cells,"0.41 µM, 6 h, together with: IL-1β 5 ng/mL",relative to: untreated,110%
CNC(=N)c1ccc(-c2ccc(-c3ccc(C(=N)NC)cc3)o2)cc1,PRMT5,"enzyme activity, inhibitor, radiometric",,20 µM,,53.7%
COc1cc(Nc2nc(C)cc(-c3cnn4nc(OC)ccc34)n2)cc(C(F)(F)F)c1,"Phosphatidylinositol 5-phosphate 4-kinase type-2 gamma (PIP4K2C, Homo sapiens, UniProt Q8TBX8)",inhibitor,,"1 µM, PIP5K2C",relative to: control,100%
N=C(N)c1ccc(-c2ccc(C(=N)N)s2)cc1,PRMT5,"enzyme activity, inhibitor, radiometric",,20 µM,,53%
C=C1C[C@@]2(C(=O)OC)C=C(C(=O)Nc3cccc(C(=O)Nc4ccc(Nc5nccc(-c6cccnc6)n5)c(C)c4)c3)C(=O)[C@@H]1C2,"Mitogen-activated protein kinase 8 (MAPK8, Homo sapiens, UniProt P45983)","kinase activity, inhibitor",,"0.0007527 µM, unit not given, together with: 10 mM glutathione",relative to: no inhibitor,0.987

# Excerpt of the above:
Structure (SMILES),target,assay,system,conditions,scale,remaining activity
N=C(N)c1ccc(-c2ccc(C(=N)N)s2)cc1,PRMT5,"enzyme activity, inhibitor, radiometric",,20 µM,,53%
